# Results of several laboratories.
# Parts stem from different laboratories: compare values within a part only. Substitutions count along the parent as printed.

# Set 1 — target: UBE2D2 UBC core domain (UniProt P62837); technique: yeast two-hybrid; matrix: yeast; notes: mostly zero background; reference: not given; reading: higher = stronger interaction
# Sequence of UniProt P62837 (whole entry, looked up): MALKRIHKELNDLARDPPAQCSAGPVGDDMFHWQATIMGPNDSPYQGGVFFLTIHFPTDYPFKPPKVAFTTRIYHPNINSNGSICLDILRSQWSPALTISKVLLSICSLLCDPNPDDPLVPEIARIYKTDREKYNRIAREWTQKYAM
# B1: TRIM5 RING domain (UniProt Q9C035); chain ILVNVKEEVTCPICLELLTQPLSLDCGHSFCQACLTANHKKSMLDKGESSCPVCRISYQPENIRP
# B2: RNF38 RING domain (UniProt Q9H0F5); chain PNNHQSEQTLCVVCMCDFESRQLLRVLPCNHEFHAKCVDKWLKANRTCPICRADASEVHRDS
# B3: TRIM43 RING domain (UniProt Q96BQ3); chain FSHAFQKELTCVICLNYLVDPVTICCGHSFCRPCLCLSWEEAQSPANCPACREPSPKMDFKT
# B4: RNF111 RING domain (UniProt Q6ZNA4); chain EGTEEDTEEKCTICLSILEEGEDVRRLPCMHLFHQVCVDQWLITNKKCPICRVDIEAQLPSE
# B5: TRIML1 RING domain (UniProt Q8N9V2); chain LMENLREELTCFICLDYFSSPVTTECGHSFCLVCLLRSWEEHNTPLSCPECWRTLEGPHFQS
# B6: TRIM13 RING domain (UniProt O60858); chain MELLEEDLTCPICCSLFDDPRVLPCSHNFCKKCLEGILEGSVRNSLWRPAPFKCPTCRKETSATGINS
# B7: TRIM40 RING domain (UniProt Q6P9F5); chain LQKDNQEEGVCPICQESLKEAVSTNCGHLFCRVCLTQHVEKASASGVFCCPLCRKPCSEEVLG
Molecule,lacZ reporter activity
B1 (TRIM5 RING domain),0
B2 (RNF38 RING domain),0
B3 (TRIM43 RING domain),0
GAAPGPEAAECLVCSELALLVLFSPCQHRTVCEECARRMKKCIRCQVVVSKKLRPD (MIB2 RING domain (UniProt Q96AX9)),0
B4 (RNF111 RING domain),14700
MPIRALCTICSDFFDHSRDVAAIHCGHTFHLQCLIQWFETAPSRTCPQCRIQVGKRTIIN (TRAIP RING domain (UniProt Q9BWF2)),0
FQGDVDEDLICPICSGVLEEPVQAPHCEHAFCNACITQWFSQQQTCPVDRSVVTVAHLRP (RNF41 RING domain (UniProt Q9H4P4)),0
B5 (TRIML1 RING domain),0
B6 (TRIM13 RING domain),0
QVDKAVFHMQSVKCLKCQEQKRAVLPCQHAALCELCAEGSECPICQPGRAHTLQS (UNK RING domain (UniProt Q9C0B0)),0
PAELEVQASECVVCLEREAQMIFLNCGHVCCCQQCCQPLRTCPLCRQDIAQRLRIY (LRSAM1 RING domain (UniProt Q6UWE0)),0
ASLPTSEEDLCPICYAHPISAVFQPCGHKSCKACINQHLMNNKDCFFCKTTIVSVEDWE (RNF123 RING domain (UniProt Q5XPI4)),0
B7 (TRIM40 RING domain),0

# Set 2 — effect on: peptide-MHC binding; form: peptide; tested at: concentration not given
# Target: HLA class I histocompatibility antigen, A alpha chain, allele A*80:01 (Homo sapiens, UniProt P04439)
Molecule,binding
FVKDWMDRI,inactive
TSCAPMMQK,inactive
FPLWNTEKI,inactive
VNRWLFRHL,inactive
MLTNASGHA,inactive
NLFEIEWEE,inactive
FPDGKPFTL,inactive
SAYYLDIGF,inactive
IAHVRDVVM,inactive
FLQQRKPPL,inactive
NSTHNTPVY,inactive
VSANVKGNW,inactive
IYDFYNAEY,inactive
QFLSFASLF,inactive
ETFNTPAMY,inactive
KLYLRPWWH,inactive
IQFDWYPTS,inactive
FTRYRKEAI,inactive
MLRKKQITV,inactive
FWAWSVLRV,inactive
FEFILRYGD,inactive
QLAKRSEIL,inactive
GQFLSFASL,inactive
RLAKLTEAI,inactive
QTDNDIWFW,inactive

# Set 3 — technique: aptamer microarray, sandwich; form: DNA with 2'F-ANA; matrix: in vitro; tested at: 200 nM; added: Cy3 exosite-II aptamer, 400 nM; reading: higher = stronger binding; sequence: GGTTGGTGTGGTTGG
# Target: Prothrombin, mature alpha-thrombin (F2, Homo sapiens, UniProt P00734)
# Notes: whole 15-mer aptamer, many near background
Modification,mean fluorescence intensity [a.u.]
2'F-ANA at 4 5 6 8 12 13,124
2'F-ANA at 1 3 4 6 7 9 11 13 15,97.6
2'F-ANA at 2 5 8 10 11 12 13 14 15,46.9
2'F-ANA at 1 3 4 5 6 7 8 11 12 13 15,75.3
2'F-ANA at 1 4 5 7 8 10 11 12 13 15,46
2'F-ANA at 4 5 8 9 10 12,50.1
2'F-ANA at 2 3 4 5 9 10 12 13 14,321
2'F-ANA at 2 4 5 6 11 13,84.8

# Set 4 — target: CCNE1, cyclin fold, Cln2 fusion (human); technique: yeast growth competition, sequencing; matrix: yeast; notes: strong parent motif; reference: not given; reading: higher = stronger binding
# Starting sequence: viral docking peptide; KKAKRRLFTISDS; partner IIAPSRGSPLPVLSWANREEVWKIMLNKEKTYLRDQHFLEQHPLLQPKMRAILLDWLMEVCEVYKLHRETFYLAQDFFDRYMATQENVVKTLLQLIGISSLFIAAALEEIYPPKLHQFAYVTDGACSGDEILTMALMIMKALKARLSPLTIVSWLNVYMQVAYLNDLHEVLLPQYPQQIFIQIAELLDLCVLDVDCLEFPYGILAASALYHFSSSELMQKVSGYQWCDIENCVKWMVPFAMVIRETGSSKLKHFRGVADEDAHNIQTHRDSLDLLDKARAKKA
Substitution,normalised enrichment score
KKAKKRLLTISDS [R5K F8L],0.199
AKAKRRLFTISDS [K1A],3.86
KKAKRRLFAISDS [T9A],3.23
KKAKRRLLTISDS [F8L],0.697
KKAKRRAFTISDS [L7A],0.11
KKAARRLFTISDS [K4A],1.87
KKAKRRLFTASDS [I10A],4.59

# Repeated from above (set 1):
Molecule,lacZ reporter activity
GAAPGPEAAECLVCSELALLVLFSPCQHRTVCEECARRMKKCIRCQVVVSKKLRPD (MIB2 RING domain (UniProt Q96AX9)),0
B3 (TRIM43 RING domain),0
QVDKAVFHMQSVKCLKCQEQKRAVLPCQHAALCELCAEGSECPICQPGRAHTLQS (UNK RING domain (UniProt Q9C0B0)),0
B1 (TRIM5 RING domain),0
B5 (TRIML1 RING domain),0
B7 (TRIM40 RING domain),0
